Results gathered from unrelated publications.
A part holds a random share of what one study measured.
UniProt P30530, sequence (whole entry, looked up): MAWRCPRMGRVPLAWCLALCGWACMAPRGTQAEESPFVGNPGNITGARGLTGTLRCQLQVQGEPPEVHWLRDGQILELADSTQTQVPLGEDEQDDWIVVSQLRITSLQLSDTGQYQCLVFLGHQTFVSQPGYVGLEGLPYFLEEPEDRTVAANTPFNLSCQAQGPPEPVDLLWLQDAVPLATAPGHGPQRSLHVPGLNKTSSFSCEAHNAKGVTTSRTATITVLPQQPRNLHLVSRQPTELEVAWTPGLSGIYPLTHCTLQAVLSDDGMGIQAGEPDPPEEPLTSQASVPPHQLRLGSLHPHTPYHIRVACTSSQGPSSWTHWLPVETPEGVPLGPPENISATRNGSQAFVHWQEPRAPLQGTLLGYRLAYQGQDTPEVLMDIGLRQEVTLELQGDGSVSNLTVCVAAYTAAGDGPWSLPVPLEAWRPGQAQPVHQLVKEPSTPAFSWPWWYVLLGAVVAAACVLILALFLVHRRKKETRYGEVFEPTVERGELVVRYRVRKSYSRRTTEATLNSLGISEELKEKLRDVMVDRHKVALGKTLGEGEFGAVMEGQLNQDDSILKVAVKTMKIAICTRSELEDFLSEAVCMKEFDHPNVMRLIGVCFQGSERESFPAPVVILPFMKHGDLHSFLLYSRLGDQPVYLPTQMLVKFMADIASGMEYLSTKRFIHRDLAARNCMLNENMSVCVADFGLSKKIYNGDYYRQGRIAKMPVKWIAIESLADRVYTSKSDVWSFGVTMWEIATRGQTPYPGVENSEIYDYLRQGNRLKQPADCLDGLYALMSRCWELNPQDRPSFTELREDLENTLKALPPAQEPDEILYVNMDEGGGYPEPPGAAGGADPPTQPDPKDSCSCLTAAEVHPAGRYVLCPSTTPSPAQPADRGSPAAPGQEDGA
UniProt Q13470, sequence (whole entry, looked up): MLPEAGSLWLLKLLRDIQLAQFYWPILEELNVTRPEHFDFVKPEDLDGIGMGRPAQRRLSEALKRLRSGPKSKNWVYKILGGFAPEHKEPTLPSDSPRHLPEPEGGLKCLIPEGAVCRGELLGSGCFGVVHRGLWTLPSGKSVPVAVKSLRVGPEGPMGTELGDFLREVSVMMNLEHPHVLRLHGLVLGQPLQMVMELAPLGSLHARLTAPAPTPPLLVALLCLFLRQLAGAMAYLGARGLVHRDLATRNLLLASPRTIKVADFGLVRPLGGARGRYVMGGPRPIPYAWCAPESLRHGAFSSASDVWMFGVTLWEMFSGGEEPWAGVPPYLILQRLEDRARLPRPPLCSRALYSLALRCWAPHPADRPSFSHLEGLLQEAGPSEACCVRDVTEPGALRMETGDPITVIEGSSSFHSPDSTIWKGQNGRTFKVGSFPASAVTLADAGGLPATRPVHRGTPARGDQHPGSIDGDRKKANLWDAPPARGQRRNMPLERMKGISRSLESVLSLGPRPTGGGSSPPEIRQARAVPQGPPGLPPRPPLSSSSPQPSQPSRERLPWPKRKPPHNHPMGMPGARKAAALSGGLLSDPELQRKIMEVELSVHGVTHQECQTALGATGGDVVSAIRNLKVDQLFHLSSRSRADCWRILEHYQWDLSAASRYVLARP
UniProt Q14012, sequence (whole entry, looked up): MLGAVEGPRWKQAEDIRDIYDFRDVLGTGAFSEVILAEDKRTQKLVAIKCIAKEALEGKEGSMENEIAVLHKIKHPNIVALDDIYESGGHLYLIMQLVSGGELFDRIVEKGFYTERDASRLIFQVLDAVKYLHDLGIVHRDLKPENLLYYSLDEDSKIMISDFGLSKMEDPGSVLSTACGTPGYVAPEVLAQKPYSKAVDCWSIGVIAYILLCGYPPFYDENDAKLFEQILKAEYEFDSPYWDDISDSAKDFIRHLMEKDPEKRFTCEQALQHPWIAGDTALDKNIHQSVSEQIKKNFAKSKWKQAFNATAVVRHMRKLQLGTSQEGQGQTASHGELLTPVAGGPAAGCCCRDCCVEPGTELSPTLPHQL
UniProt Q16513, sequence (whole entry, looked up): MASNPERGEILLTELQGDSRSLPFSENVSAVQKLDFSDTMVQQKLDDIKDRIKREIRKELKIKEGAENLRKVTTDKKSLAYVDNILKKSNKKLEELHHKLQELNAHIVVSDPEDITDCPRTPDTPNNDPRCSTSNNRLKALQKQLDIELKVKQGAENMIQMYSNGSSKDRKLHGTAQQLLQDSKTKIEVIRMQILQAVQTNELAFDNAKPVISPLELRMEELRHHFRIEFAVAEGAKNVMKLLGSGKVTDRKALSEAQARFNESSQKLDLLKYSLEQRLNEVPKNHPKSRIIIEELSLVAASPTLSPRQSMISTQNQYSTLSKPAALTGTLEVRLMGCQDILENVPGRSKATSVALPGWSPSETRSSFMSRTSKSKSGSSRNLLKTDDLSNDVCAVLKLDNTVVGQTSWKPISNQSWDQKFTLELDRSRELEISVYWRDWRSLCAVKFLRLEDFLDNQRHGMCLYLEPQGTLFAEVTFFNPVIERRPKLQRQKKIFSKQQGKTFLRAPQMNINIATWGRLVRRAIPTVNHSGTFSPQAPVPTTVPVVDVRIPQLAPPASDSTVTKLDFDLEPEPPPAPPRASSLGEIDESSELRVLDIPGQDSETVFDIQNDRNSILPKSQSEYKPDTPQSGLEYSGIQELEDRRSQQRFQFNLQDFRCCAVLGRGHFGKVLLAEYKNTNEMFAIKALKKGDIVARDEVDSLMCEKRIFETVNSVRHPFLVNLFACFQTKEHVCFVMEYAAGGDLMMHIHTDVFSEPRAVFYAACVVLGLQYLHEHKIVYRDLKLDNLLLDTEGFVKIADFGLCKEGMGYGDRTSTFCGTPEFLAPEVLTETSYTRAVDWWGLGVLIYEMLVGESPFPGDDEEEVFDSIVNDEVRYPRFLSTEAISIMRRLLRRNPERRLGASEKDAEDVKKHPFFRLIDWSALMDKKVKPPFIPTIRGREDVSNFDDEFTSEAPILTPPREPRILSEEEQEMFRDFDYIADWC
UniProt Q8TDX7, sequence (whole entry, looked up): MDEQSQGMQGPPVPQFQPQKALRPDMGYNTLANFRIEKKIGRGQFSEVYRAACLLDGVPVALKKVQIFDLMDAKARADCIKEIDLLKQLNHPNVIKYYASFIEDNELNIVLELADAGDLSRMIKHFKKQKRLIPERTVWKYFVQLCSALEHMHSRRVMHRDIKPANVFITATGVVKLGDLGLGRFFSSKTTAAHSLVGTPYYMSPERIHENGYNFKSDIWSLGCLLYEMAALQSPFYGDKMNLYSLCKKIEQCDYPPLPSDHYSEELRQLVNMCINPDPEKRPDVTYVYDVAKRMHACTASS
UniProt Q9Y2U5, sequence (whole entry, looked up): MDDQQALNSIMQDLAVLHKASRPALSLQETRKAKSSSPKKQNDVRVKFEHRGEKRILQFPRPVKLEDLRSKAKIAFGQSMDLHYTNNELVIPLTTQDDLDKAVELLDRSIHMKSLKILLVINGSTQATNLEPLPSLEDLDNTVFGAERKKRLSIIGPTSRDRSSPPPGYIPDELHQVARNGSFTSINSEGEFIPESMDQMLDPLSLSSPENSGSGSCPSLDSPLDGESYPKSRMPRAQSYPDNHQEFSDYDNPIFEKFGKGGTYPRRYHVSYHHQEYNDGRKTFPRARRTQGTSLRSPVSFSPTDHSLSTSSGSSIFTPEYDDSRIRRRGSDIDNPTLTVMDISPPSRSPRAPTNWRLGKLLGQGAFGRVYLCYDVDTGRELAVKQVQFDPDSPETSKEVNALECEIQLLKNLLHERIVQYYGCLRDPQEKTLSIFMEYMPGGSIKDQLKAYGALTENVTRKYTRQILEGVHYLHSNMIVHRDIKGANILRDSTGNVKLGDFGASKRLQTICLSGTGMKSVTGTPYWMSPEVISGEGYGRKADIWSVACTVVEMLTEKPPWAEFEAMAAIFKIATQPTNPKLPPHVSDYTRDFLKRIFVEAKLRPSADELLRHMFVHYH
UniProt P53779, sequence (whole entry, looked up): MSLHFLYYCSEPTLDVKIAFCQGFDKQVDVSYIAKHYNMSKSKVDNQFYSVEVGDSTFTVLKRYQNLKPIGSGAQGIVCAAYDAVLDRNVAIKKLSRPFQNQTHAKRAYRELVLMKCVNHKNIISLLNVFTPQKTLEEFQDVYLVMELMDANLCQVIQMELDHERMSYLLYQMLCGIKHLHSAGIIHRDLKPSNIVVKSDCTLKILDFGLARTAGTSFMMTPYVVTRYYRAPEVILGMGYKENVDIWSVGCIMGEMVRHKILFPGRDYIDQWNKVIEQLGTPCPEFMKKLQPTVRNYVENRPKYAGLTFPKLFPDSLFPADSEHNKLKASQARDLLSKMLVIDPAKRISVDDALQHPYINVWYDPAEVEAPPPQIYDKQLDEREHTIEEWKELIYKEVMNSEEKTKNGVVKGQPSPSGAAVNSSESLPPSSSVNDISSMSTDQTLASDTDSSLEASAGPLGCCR
UniProt O14965, sequence (whole entry, looked up): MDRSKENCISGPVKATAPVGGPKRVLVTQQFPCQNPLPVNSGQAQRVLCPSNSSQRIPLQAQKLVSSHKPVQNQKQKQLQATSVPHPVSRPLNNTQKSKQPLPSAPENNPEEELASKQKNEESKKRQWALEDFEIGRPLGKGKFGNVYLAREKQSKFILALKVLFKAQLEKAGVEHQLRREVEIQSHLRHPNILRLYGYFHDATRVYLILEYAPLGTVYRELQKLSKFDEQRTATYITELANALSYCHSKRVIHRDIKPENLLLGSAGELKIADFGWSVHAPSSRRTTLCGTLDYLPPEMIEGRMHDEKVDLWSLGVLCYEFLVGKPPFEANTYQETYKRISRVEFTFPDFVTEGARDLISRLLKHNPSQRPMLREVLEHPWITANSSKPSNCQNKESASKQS

Sample 1
Host: human
Matrix: microsomes or S9
Tested at: 2 µM
Time: 0.5 h
Quantity: remaining compound
N#Cc1nc(-c2ccccc2F)oc1NCC1CCCO1 (stereo not drawn): 20.1%
CCc1nn(C)c(Cl)c1CN1CCc2cc(F)c(F)cc21: 53.8%
O=C(CC(c1ccccc1)c1ccccc1)N1CCOCC1: 16.2%
CCN(CC)S(=O)(=O)c1cc(Br)cnc1N: 37.1%
CCOC(=O)C1CCN(Cc2nc(N)nc(Nc3ccc(C)cc3)n2)c2ccccc21 (stereo not drawn): 2.53%
COC(C)C(C)C(=O)O[C@H]1Cc2cc3ccc(=O)oc3cc2OC1(C)C (stereo partly drawn): 11.6%
Clc1ccc(-c2c(-n3cncn3)nc3ccc(Cl)cc3c2Cl)c(Cl)c1: 50.7%
Cn1[nH]c(Br)c2/c(=N\CCN)ncnc1-2: 49.2%
Cc1ccc(NC(=O)NCC(C(C)C)N(C)C)cc1 (stereo not drawn): 57.2%
Cc1cc(C(O)CN2CCN(c3ccc(F)cc3F)CC2)c(C)s1 (stereo not drawn): 48.9%
COc1cc(=O)n(C)cc1C(=O)N1CCc2[nH]c(=O)c(C#N)cc2C1: > 99%
CCN(CC)c1cc(CCC(=O)N(C)CCCc2c(C)nn(C)c2C)ccn1: 4.99%
Cc1cc(-c2cc(=O)n(C)n2C(F)F)c(F)cc1Cl: 62.3%
CC(=O)N1CCN(C(=O)Cn2nc(C)c(C)c2C)CC(O)C1 (stereo not drawn): 25.2%

Sample 2
SMILES: CC#CC(=O)N1CCC[C@H]1c1nc(-c2ccc(C(=O)Nc3ccccn3)cc2)c2c(N)nccn12
Read-out: enzyme activity
Action: inhibitor
Tested at: 1 µM
Quantity: inhibition
Leucine-rich repeat serine/threonine-protein kinase 2 (LRRK2, Homo sapiens, UniProt Q5S007): 0%
Interleukin-1 receptor-associated kinase 3 (IRAK3, Homo sapiens, UniProt Q9Y616): 0%
Myosin light chain kinase family member 4 (MYLK4, Homo sapiens, UniProt Q86YV6): 1%
Receptor-type tyrosine-protein kinase FLT3 (FLT3, Homo sapiens, UniProt P36888, D835Y): 0%
Serine/threonine-protein kinase N1 (PKN1, Homo sapiens, UniProt Q16512): 3%
Epithelial discoidin domain-containing receptor 1 (DDR1, Homo sapiens, UniProt Q08345): 20%
Serine/threonine-protein kinase ICK (CILK1, Homo sapiens, UniProt Q9UPZ9): 5%
G protein-coupled receptor kinase 4 (GRK4, Homo sapiens, UniProt P32298): 17%
Tyrosine-protein kinase ITK/TSK (ITK, Homo sapiens, UniProt Q08881): 0%
Cyclin-dependent kinase-like 2 (CDKL2, Homo sapiens, UniProt Q92772): 14%
Mast/stem cell growth factor receptor Kit (KIT, Homo sapiens, UniProt P10721, T670I/V559D): 31%
Serine/threonine-protein kinase Sgk1 (SGK1, Homo sapiens, UniProt O00141): 3%
Phosphatidylinositol 4,5-bisphosphate 3-kinase catalytic subunit alpha isoform (PIK3CA, Homo sapiens, UniProt P42336, H1047Y): 27%
Mitogen-activated protein kinase kinase kinase 20 (MAP3K20, Homo sapiens, UniProt Q9NYL2): 24%

Sample 3
SMILES: O=C(NC(NC(=S)Nc1ccc(F)c([N+](=O)[O-])c1)C(Cl)(Cl)Cl)C(c1ccccc1)c1ccccc1 (stereo not drawn)
Read-out: enzyme activity
Action: inhibitor
Tested at: 0.5 µM
Reference: control
Quantity: remaining activity
Cyclin-dependent kinase 2, with cyclin A (CDK2, Homo sapiens, UniProt P24941): 102%
Dual specificity tyrosine-phosphorylation-regulated kinase 4 (DYRK4, Homo sapiens, UniProt Q9NR20): 104%
Casein kinase II subunit alpha' (CSNK2A2, Homo sapiens, UniProt P19784): 97%
Mitogen-activated protein kinase kinase kinase 8 (MAP3K8, Homo sapiens, UniProt P41279): 105%
Epidermal growth factor receptor (EGFR, Homo sapiens, UniProt P00533): 108%
Calcium/calmodulin-dependent protein kinase type 1D (CAMK1D, Homo sapiens, UniProt Q8IU85): 99%
Serine/threonine-protein kinase BRSK1 (BRSK1, Homo sapiens, UniProt Q8TDC3): 98.3%
NT-3 growth factor receptor (NTRK3, Homo sapiens, UniProt Q16288): 108%
Serine/threonine-protein kinase Nek9 (NEK9, Homo sapiens, UniProt Q8TD19): 110%
Rho-associated protein kinase 2 (ROCK2, Homo sapiens, UniProt O75116): 109%
Mitogen-activated protein kinase kinase kinase 2 (MAP3K2, Homo sapiens, UniProt Q9Y2U5): 96.8%
Cyclin-dependent kinase 7 (CDK7, Homo sapiens, UniProt P50613): 99%
Protein-tyrosine kinase 2-beta (PTK2B, Homo sapiens, UniProt Q14289): 102%
Proto-oncogene tyrosine-protein kinase receptor Ret (RET, Homo sapiens, UniProt P07949): 103%
Homeodomain-interacting protein kinase 3 (HIPK3, Homo sapiens, UniProt Q9H422): 105%
Proto-oncogene tyrosine-protein kinase ROS (ROS1, Homo sapiens, UniProt P08922): 99.5%
Serine/threonine-protein kinase N2 (PKN2, Homo sapiens, UniProt Q16513): 88.1%
Aurora kinase A (AURKA, Homo sapiens, UniProt O14965): 80.8%
Mitogen-activated protein kinase 10 (MAPK10, Homo sapiens, UniProt P53779): 96.2%
Calcium/calmodulin-dependent protein kinase type 1G (CAMK1G, Homo sapiens, UniProt Q96NX5): 102%
Serine/threonine-protein kinase D1 (PRKD1, Homo sapiens, UniProt Q15139): 96.9%
G protein-coupled receptor kinase 5 (GRK5, Homo sapiens, UniProt P34947): 105%

Sample 4
SMILES: CO[C@@H](C)c1c(Nc2ccc([C@H](N(C)C(=O)C3CCS(=O)(=O)CC3)C(F)(F)F)cc2)cnc2cc(Cl)nn12
Technique: competition with immobilised ligand
Tested at: 1 µM
Quantity: remaining binding
Tyrosine-protein kinase receptor UFO (AXL, Homo sapiens, UniProt P30530); cell-free assay: 76%
Proto-oncogene tyrosine-protein kinase Src (SRC, Homo sapiens, UniProt P12931); cell-free assay: 99%
Serine/threonine-protein kinase Nek7 (NEK7, Homo sapiens, UniProt Q8TDX7); cell-free assay: 75%
Calcium/calmodulin-dependent protein kinase type 1 (CAMK1, Homo sapiens, UniProt Q14012); cell-free assay: 66%
Non-receptor tyrosine-protein kinase TNK1 (TNK1, Homo sapiens, UniProt Q13470); cell-free assay: 100%
Tyrosine-protein kinase Lyn (LYN, Homo sapiens, UniProt P07948); cell-free assay: 77%
Calcium/calmodulin-dependent protein kinase type 1B (PNCK, Homo sapiens, UniProt Q6P2M8); cell-free assay: 100%
Tyrosine-protein kinase JAK2, JH1 (JAK2, Homo sapiens, UniProt O60674); cell-free assay: 100%
Cyclin-dependent kinase 11A (CDK11A, Homo sapiens, UniProt Q9UQ88); binding: 93%
Serine/threonine-protein kinase 4 (STK4, Homo sapiens, UniProt Q13043); cell-free assay: 100%
TGF-beta receptor type-2 (TGFBR2, Homo sapiens, UniProt P37173); cell-free assay: 100%
Ephrin type-B receptor 6 (EPHB6, Homo sapiens, UniProt O15197); cell-free assay: 100%
Receptor-type tyrosine-protein kinase FLT3, autoinhibited (FLT3, Homo sapiens, UniProt P36888); cell-free assay: 100%
RAF proto-oncogene serine/threonine-protein kinase (RAF1, Homo sapiens, UniProt P04049); cell-free assay: 97%
Serine/threonine-protein kinase ULK1 (ULK1, Homo sapiens, UniProt O75385); cell-free assay: 100%
Tyrosine-protein kinase Fyn (FYN, Homo sapiens, UniProt P06241); cell-free assay: 100%

Excerpt of the above (sample 3):
Mitogen-activated protein kinase 10 (MAPK10, Homo sapiens, UniProt P53779): 96.2%
Calcium/calmodulin-dependent protein kinase type 1G (CAMK1G, Homo sapiens, UniProt Q96NX5): 102%
Serine/threonine-protein kinase D1 (PRKD1, Homo sapiens, UniProt Q15139): 96.9%
G protein-coupled receptor kinase 5 (GRK5, Homo sapiens, UniProt P34947): 105%
